# Measurements gathered from unrelated publications.
# Every numbered part comes from another study and shows a few of its results, in no order. Positions count from the first letter of the parent shown.

# Series 1
# Target: RNA binding protein fox-1 homolog 2, RRM domain, GST-SBP tag (RBFOX2, Homo sapiens, UniProt O43251-10, residues 100-194)
# Technique: RNA Bind-n-Seq
# Molecule type: RNA
# Sample: in vitro
# Concentration: 365 nM
# Notes: natural RNA segment, single round, ends assumed
# Baseline: no-protein control
# Direction: higher = stronger binding
# Residues (chain): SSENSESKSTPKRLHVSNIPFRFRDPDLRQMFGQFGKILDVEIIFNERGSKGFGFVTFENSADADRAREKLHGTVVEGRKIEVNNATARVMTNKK
Sequence,RBNS enrichment (R)
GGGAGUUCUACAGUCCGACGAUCUGGAGCGUGUGGGCCAUCCCAAGGAGCGAUGCUUCACCUUCUGAUGGCUGGACGCUGGCCAAGCCUGUGCCUGCUGCUCACGCACUCACCACAACCACCUGUCCACCCCUUGGAAUUCUCGGGUGCCAA,0.899
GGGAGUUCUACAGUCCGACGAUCGGGACCACGUGUGCACGCAUGACCGUGUGGGUGGCGGCGUUUGCUGUGAACCACGCUCAGGCCACACAGAGACACAUACUUGGUUUCUGGGACUGAGACCCAGGCCUGGCUGGAAUUCUCGGGUGCCAA,15.7
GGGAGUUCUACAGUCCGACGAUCUGGCCGUCAGCACCCCUCCUUUCCCCAAGGUGAAAUGGAGGGUGCUGUGGGGGCCUGCCCACUCCAUGGCAGUGCCCUGAAGGAGUCAGACUACCAUGGCAUCGCAGGCCUGGAAUUCUCGGGUGCCAA,0.252
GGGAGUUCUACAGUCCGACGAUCAUCUGAGGUCCCAGGAGGAGGCUCAGGAUUCCCUGGUGGGUCUGGAUGUCCCUUGGGUCAGAGGUCAUCCUUUCCCUCUCUCCUGUUAUCAGAGGCAAAGGAAGGUCUACUGGAAUUCUCGGGUGCCAA,0.438
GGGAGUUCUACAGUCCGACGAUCCCUAGACAGGUUACAGAUUUAAUUUUCACCUACCAAGGGACAGUCUCCUCCCUGGACAAGGCUCAGUGGACCAUCAGAUGGAGGAAGACUGGCCCCAUUGCUUGAGCCCCUGGAAUUCUCGGGUGCCAA,0.382
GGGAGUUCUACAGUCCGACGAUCUGUAGCAGCCGGGAUGUGACCCUCCAGGGUUUGGGUCGCUUUGCGUUUGUCGAAGCCUCCUCUGAAUGGCUUUGUGAAAUCAAGAUGUUUUAAUCACAUUCACUUUACUUUGGAAUUCUCGGGUGCCAA,0.269
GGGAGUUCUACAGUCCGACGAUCCUGAUAGAUGCAUUAGAAGUCAGCCAGCGCAUAGGUGCUCCCUCUAUAUUAUGGAGAAAGCAAAACCCUGCAAAUGACCAAAUGGUGUCCAAAGAGCAGCAUGACAUUGGUGGAAUUCUCGGGUGCCAA,2.44
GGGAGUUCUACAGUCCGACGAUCGUUCAGUCUAUGAUGGAGAGGGGACCAGGUCAAGGGCCUCAGCCAGAGCAGACCAGGCUGCCUCAGAGCAUACACCUUAUAAUGCAACCCACUUCAGCUGGCUUUGGGGAUGGAAUUCUCGGGUGCCAA,0.419

# Series 2
# Target: Fragile X messenger ribonucleoprotein 1, C-terminal low-complexity region (Fmr1, Mus musculus, UniProt P35922)
# Technique: RNA Bind-n-Seq
# Molecule type: RNA
# Sample: in vitro
# Concentration: 200 nM
# Notes: whole 134-nt RNA, ends assumed
# Added: 150 mM KCl
# Baseline: input library
# Direction: higher = stronger binding
Sequence,log2 enrichment
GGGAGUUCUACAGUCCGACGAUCUGGCCCUGGUGGCAUGCGGGGAGAAAGAGGUGGCCUCAUGGAUCGUGGUGGUCCCGGUGGAAUGUUCAGAGGUGGCCGUGGUGGAGACAGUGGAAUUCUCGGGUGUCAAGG,0.0259
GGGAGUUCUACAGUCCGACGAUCCUGUGCUACACAUCGUAUGUACCGAAUCGUGUGUGUGUGUGUGUGUGUGUGUGUGUGUGUGUAAAGUAUUAUGUUACGCCGUUCGGAUCUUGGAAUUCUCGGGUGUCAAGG,0.749
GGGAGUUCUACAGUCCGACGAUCAGUCCUGUGCUACACAUCGUAUGUACCGAAUCGGGGAAAAGGAAAAGGGGAAAAGGGGAAAGUAUUAUGUUACGCCGUUCGGAUCUGCACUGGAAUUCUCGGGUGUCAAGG,0.185
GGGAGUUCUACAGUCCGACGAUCAAGUCCUGUGCUACACAUCGUAUGUACCGAAUCAAAUUUAAACCCCCAAACCCAAAAAAGUAUUAUGUUACGCCGUUCGGAUCUGCACUUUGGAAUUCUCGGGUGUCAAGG,-0.292
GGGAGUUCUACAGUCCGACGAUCUCCUGUGCUACACAUCGUAUGUACCGAAUCGGGGUUUGGGGAAAAAGGGGUUUUUGGGGAAAGUAUUAUGUUACGCCGUUCGGAUCUGCAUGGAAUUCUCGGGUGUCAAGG,0.76
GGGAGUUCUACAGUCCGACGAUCCACAGACAACACGCACCCACAAAGACACAGAGGGAAGGGGUUGGGAUGGGGACAGGGUGCACAGCAGGGCGGGGUAGGACCCCAGCCCCUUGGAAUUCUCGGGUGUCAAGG,1.23
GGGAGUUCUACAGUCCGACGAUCUCCUCAAGUCCUGUGCUACACAUCGUAUGUACCGAAUCGGAGGGAGGAGGGGAAAGUAUUAUGUUACGCCGUUCGGAUCUGCACUUCCAGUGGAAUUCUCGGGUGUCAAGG,0.548
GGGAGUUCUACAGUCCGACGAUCGCAGGAAGUAAAAACAAAUGGAAAUGCUUCGGAUAGUGGCAGGGGGGGGGGUUGCUAAGGAAAGGGUGGGAUGGGAGUGGGUAAAGAGUUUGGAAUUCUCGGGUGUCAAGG,0.293
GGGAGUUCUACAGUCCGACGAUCCCUGUGCUACACAUCGUAUGUACCGAAUCGGAAAAAAAGGAAAAAAAGGGAAAAAAAGGGAAAGUAUUAUGUUACGCCGUUCGGAUCUGCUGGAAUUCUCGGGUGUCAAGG,-0.874

# Series 3
# Target: RING finger protein unkempt homolog, zinc fingers 1-6, GST-SBP tag (UNK, Homo sapiens, UniProt Q9C0B0, residues 30-357)
# Technique: RNA Bind-n-Seq
# Molecule type: RNA
# Sample: in vitro
# Concentration: not given
# Notes: RNA with constant flanks, human and mouse sites, ends assumed
# Baseline: input RNA pool
# Direction: higher = stronger binding
Sequence,bound/input enrichment [ratio]
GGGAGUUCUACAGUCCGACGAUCGCUGCUCAGAUAAACGGUAAAACAGAAUCUAGUUCUGUGGUUCGAACCAGAAGCAACCGAGUGGUUGUAGAUCCAGUUGUCACUGAGCAACCAUCUACUUCUUCAGCUGCAAAGACUUUUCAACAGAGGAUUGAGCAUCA,0.132
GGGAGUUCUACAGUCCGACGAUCAGGAUCUGUCGCCUGAACCGCCUCCUGGUCCCUCGAAGCCAUCCCAGAGAACCAGUGGAUCUCCAAUCUAGUCCUGUCCCAUUGCUCCCUCCUGGCUCAGCCUUUCCCACUGCGGGGUUCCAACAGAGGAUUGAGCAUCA,1.01
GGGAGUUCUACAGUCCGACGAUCCGGCUAAAGAUUGACUUUGGGGAAGCUGCCAGGGCAGAUGAUGCCCGGCAAUUAUUUGUUUUAGCUGGCAGUGCUGAAGAAGGAGUCAUGACUCCAGAACUAGCAGGAGUGAUUAAACGGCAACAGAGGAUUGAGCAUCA,0.389
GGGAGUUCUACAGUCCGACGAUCUCCCACAGCAGCACCUCCUCGAAGGCUCAUGACAGUGCUUCCUGUUCACAGUCCCAGGGUGGCUUCAGCCAGCCCCAAGGCACUCCUUCUCAGUUGCACGAGCUCUCACAGUAUCAGGGUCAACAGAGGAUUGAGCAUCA,0.112
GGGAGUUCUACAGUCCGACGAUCCGAUUUUUUUAUAAAGAGAAGGAAUCUGUGAAUGCCAAAGUUCUUAAGGAUGUUAAAUUUCCUCUUAUGUUGGAUAUGUAUGAACUGUGUACACCAGAACUUCAAGAGAAAAUGGUGUCUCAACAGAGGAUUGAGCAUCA,0.345
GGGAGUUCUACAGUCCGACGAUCAGAUGCCGGGCUAAACCCCCUGGAAGGGCCUGCAGCAAUCCCUCCUUCCUUCGGUUUCAACUGGACUUCUAUCAGGUCUACUUCCUGGCCCUGGCAGCUGAUUGGCUUCAGGCCCCCUACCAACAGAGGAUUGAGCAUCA,0.113
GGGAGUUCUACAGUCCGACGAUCGUGUGUGUGUGUGUGUGUGUGUGUGUGUGUGUGUGUGUAAGGGAGUACUUUAACCUUGCCAGUUUGUUCCCUCUUUUAUUUUACUGUUUUCUUUUUAGAAACCCACUGUUAAAAUUUAAACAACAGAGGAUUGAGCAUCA,4.19
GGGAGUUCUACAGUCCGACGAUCUGCCCGGGGCCACGCUACGAGCUGCGGGACUGCUGCUGGGUGCUGUGCGCGCUGCUCGUGUUCUUCUCCGACGGCGCCACCGACCUGUGGCUGGCGGCCUCCUACUACCUGCAGGGUCAGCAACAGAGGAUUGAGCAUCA,0.17

# Series 4
# Target: UBE2H UBC core domain (UniProt P62256)
# Sequence of UniProt P62256 (whole entry, looked up): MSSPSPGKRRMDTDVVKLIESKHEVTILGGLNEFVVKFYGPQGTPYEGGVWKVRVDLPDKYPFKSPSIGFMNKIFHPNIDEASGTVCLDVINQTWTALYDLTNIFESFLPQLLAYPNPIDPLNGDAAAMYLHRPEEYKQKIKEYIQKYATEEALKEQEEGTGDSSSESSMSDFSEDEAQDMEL
# Technique: yeast two-hybrid
# Sample: yeast
# Notes: mostly zero background
# Baseline: not given
# Direction: higher = stronger interaction
# B1: RC3H1 RING domain (UniProt Q5TC82); chain QAPQWTDFLSCPICTQTFDETIRKPISLGCGHTVCKMCLNKLHRKACPFDQTTINTDIELL
# B2: TRIM4 RING domain (UniProt Q9C037); chain EAEDIQEELTCPICLDYFQDPVSIECGHNFCRGCLHRNWAPGGGPFPCPECRHPSAPAALRP
# B3: RNF111 RING domain (UniProt Q6ZNA4); chain EGTEEDTEEKCTICLSILEEGEDVRRLPCMHLFHQVCVDQWLITNKKCPICRVDIEAQLPSE
Sequence,lacZ reporter activity
B1 (RC3H1 RING domain),0
B2 (TRIM4 RING domain),0
B3 (RNF111 RING domain),0
MPIRALCTICSDFFDHSRDVAAIHCGHTFHLQCLIQWFETAPSRTCPQCRIQVGKRTIIN (TRAIP RING domain (UniProt Q9BWF2)),0
QVDKAVFHMQSVKCLKCQEQKRAVLPCQHAALCELCAEGSECPICQPGRAHTLQS (UNK RING domain (UniProt Q9C0B0)),0
ASLPTSEEDLCPICYAHPISAVFQPCGHKSCKACINQHLMNNKDCFFCKTTIVSVEDWE (RNF123 RING domain (UniProt Q5XPI4)),0
GAAPGPEAAECLVCSELALLVLFSPCQHRTVCEECARRMKKCIRCQVVVSKKLRPD (MIB2 RING domain (UniProt Q96AX9)),0

# Series 5
# Target: CCND2, cyclin fold, Cln2 fusion (human)
# Technique: yeast growth competition, sequencing
# Sample: yeast
# Notes: weak parent motif
# Baseline: not given
# Direction: higher = stronger binding
# Parent: GMNC docking peptide (human); KNAKRNLSSEFAN; partner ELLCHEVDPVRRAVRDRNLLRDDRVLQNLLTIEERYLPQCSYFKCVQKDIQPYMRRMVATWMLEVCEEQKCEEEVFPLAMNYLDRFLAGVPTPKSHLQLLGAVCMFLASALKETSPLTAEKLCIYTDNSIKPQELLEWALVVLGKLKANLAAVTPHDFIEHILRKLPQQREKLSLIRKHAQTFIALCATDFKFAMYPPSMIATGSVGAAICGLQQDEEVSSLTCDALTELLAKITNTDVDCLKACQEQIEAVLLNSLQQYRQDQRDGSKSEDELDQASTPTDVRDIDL
Variant,normalised enrichment score
KNAKRNLSSEHAN [F11H],0.0755
KNAKFNLSSEFAN [R5F],0.0309
KNAKRELSSEFAN [N6E],0.493
KNAKRNLSSEGAN [F11G],0.248
KNAKRNLSSEFDN [A12D],0.227
KNAKQNLSSEFAN [R5Q],0.132
KNVKRNLSSEFAN [A3V],0.304
KNARRNLSSEFAN [K4R],0.439
KNTKRNLSSEFAN [A3T],0.211
KNAKRNLYSEFAN [S8Y],-0.0229
KNAKRNLSSEVAN [F11V],0.0876
KNAKRNLFSEFAN [S8F],0.00267
KNAKRNLISEFAN [S8I],0.0492
KNAKRNCSSEFAN [L7C],-0.204
KNAKRNLESEFAN [S8E],-0.165
KNAKRNMSSEFAN [L7M],0.102
KNSKRNLSSEFAN [A3S],0.177
KNEKRNLSSEFAN [A3E],0.0881
KNAKRNLSSEFKN [A12K],0.162
KNAKRNLSREFAN [S9R],0.526
KNAKRNLSSEKAN [F11K],-0.332
KNAKRNLSGEFAN [S9G],0.294
KNAPRNLSSEFAN [K4P],0.385
KNAKRNLSSERAN [F11R],-0.0592
KNAKRNLSSYFAN [E10Y],-0.871
